Results collected from several papers.
Protocols differ between the studies behind these lines.

Molecule = CD4 soluble (UniProt P01730); target or system = env gp120 H66A (HIV-1 YU2); assay = HIV-1 neutralization, neutraliser; system = Cf2Th-CD4/CCR5; setting = with: soluble CD4; measurement = IC90; result = 200 nM
Molecule = dmhA S134A (Campylobacter jejuni); target or system = Nc1nc2c(ncn2[C@@H]2O[C@H](COP(=O)(O)OP(=O)(O)O[C@H]3O[C@H]([C@H](O)CO)[C@@H](O)[C@H](O)[C@@H]3O)[C@@H](O)[C@H]2O)c(=O)[nH]1; assay = steady-state kinetics; setting = pH 7.5, 30 °C; measurement = Km; result = 26 µM
Molecule = rhodiosin; target or system = Replicase polyprotein 1ab, main protease (rep, Severe acute respiratory syndrome coronavirus 2, UniProt P0DTD1); assay = microscale thermophoresis; setting = 63 min preincubation; measurement = Kd; result = 1120 nM
Molecule = cbh (Clostridium perfringens, UniProt P54965); target or system = C[C@H](CCC(=O)N[C@@H](Cc1ccc(O)cc1)C(=O)O)[C@H]1CC[C@H]2[C@@H]3[C@H](O)C[C@@H]4C[C@H](O)CC[C@]4(C)[C@H]3C[C@H](O)[C@]12C; assay = steady-state kinetics; setting = pH 6.2, 37 °C; measurement = Km; result = 2170 µM
Molecule = bismuth potassium citrate; target or system = Replicase polyprotein 1ab, nsp13 helicase (rep, Severe acute respiratory syndrome coronavirus 2, UniProt P0DTD1); assay = helicase activity; system = SARS-CoV-2; measurement = IC50; result = 440 nM
Molecule = Rv1045 (Mycobacterium tuberculosis, UniProt P96356); target or system = Nc1ccn([C@@H]2O[C@H](COP(=O)(O)OP(=O)(O)OP(=O)(O)O)[C@@H](O)[C@H]2O)c(=O)n1; assay = steady-state kinetics; setting = pH 8.5, 37 °C; measurement = Km; result = 136 µM
Molecule = dmhA T187A (Campylobacter jejuni); target or system = Nc1nc2c(ncn2[C@@H]2O[C@H](COP(=O)(O)OP(=O)(O)O[C@H]3O[C@H]([C@H](O)CO)[C@@H](O)[C@H](O)[C@@H]3O)[C@@H](O)[C@H]2O)c(=O)[nH]1; assay = steady-state kinetics; setting = pH 7.5, 30 °C; measurement = Km; result = 165 µM

For quick reference, copied from above:
Molecule = dmhA S134A (Campylobacter jejuni); target or system = Nc1nc2c(ncn2[C@@H]2O[C@H](COP(=O)(O)OP(=O)(O)O[C@H]3O[C@H]([C@H](O)CO)[C@@H](O)[C@H](O)[C@@H]3O)[C@@H](O)[C@H]2O)c(=O)[nH]1; assay = steady-state kinetics; setting = pH 7.5, 30 °C; measurement = Km; result = 26 µM
